{"data": "Measurements of several laboratories", "note": "Protocols differ between the studies behind these lines. ± gives the spread as reported."}
{"Substance": "Nc1ncnc2c([C@@H]3N[C@H](CO)[C@@H](O)[C@H]3O)c[nH]c12", "tested on": "Zaire ebolavirus", "assay": "antibody staining", "test system": "human macrophages", "conditions": "25 µM", "endpoint": "antigen-positive cells", "value": "37.1%"}
{"Substance": "COC(=O)CC[C@H](NC(=O)[C@H](CC(=O)OC)NC(=O)OCc1ccccc1)C(=O)N[C@H](C(=O)N[C@@H](CC(=O)OC)C(=O)CF)C(C)C", "tested on": "Replicase polyprotein 1ab, main protease (rep, Severe acute respiratory syndrome coronavirus 2, UniProt P0DTD1)", "assay": "reporter gene (Gaussia luciferase), inhibitor", "conditions": "20 µM", "endpoint": "inhibition", "value": "4.31%"}
{"Substance": "LYDKLVSSF", "assay": "AIM", "test system": "peptide, CD8+ T cells from PBMC, human donors", "scale": "baseline: positive over tested donors", "endpoint": "frequency of responding donors", "value": "100%"}
{"Substance": "CC[C@H](C)[C@H](NC(=O)[C@H](CC(C)C)NC(=O)[C@H](Cc1c[nH]c2ccccc12)NC(=O)[C@H](CCC(N)=O)NC(=O)[C@@H](NC(=O)[C@H](Cc1ccccc1)NC(=O)[C@H](C)NC(=O)[C@H](CCCCNC(=O)COCCOCCNC(=O)COCCOCCNC(=O)CC[C@H](NC(=O)CCCCCCCCCCCCCCCCCCC(=O)O)C(=O)O)NC(=O)[C@H](CCC(N)=O)NC(=O)[C@H](C)NC(=O)[C@@H](NC(=O)[C@H](CCCCN)NC(=O)[C@H](CC(=O)O)NC(=O)[C@H](CC(C)C)NC(=O)C(C)(C)NC(=O)[C@@H](NC(=O)[C@H](CO)NC(=O)[C@H](Cc1ccc(O)cc1)NC(=O)[C@H](CC(=O)O)NC(=O)[C@H](CO)NC(=O)[C@@H](NC(=O)[C@H](Cc1ccccc1)NC(=O)[C@@H](NC(=O)CNC(=O)[C@H](CCC(=O)O)NC(=O)C(C)(C)NC(=O)[C@@H](N)Cc1ccc(O)cc1)[C@@H](C)O)[C@@H](C)O)[C@@H](C)CC)[C@@H](C)CC)C(C)C)C(=O)N[C@@H](C)C(=O)NCC(=O)NCC(=O)N1CCC[C@H]1C(=O)N[C@@H](CO)C(=O)N[C@@H](CO)C(=O)NCC(=O)N[C@@H](C)C(=O)N1CCC[C@H]1C(=O)N1CCC[C@H]1C(=O)N1CCC[C@H]1C(=O)N[C@@H](CO)C(N)=O", "test system": "patients with type 2 diabetes, serum", "conditions": "0.5 mg, day 29, proof of concept study", "endpoint": "AST", "value": "20.6 ± 8.1 U/L"}
{"Substance": "Cn1cnc(Cn2c(=O)[nH]/c(=N\\c3cc4cn(C)nc4cc3Cl)n(Cc3cc(F)c(F)cc3F)c2=O)n1", "test system": "human, all renal function groups", "conditions": "oral, 375 mg", "endpoint": "anaemia TEAE, Mild severity", "value": "3.1%"}
{"Substance": "FIYNKIVDEPEEHVQ", "tested on": "human CD4 T cells", "assay": "AIM", "test system": "peptide", "endpoint": "responding donors", "value": "14%"}
{"note": "Some of these lines once more:"}
{"Substance": "CC[C@H](C)[C@H](NC(=O)[C@H](CC(C)C)NC(=O)[C@H](Cc1c[nH]c2ccccc12)NC(=O)[C@H](CCC(N)=O)NC(=O)[C@@H](NC(=O)[C@H](Cc1ccccc1)NC(=O)[C@H](C)NC(=O)[C@H](CCCCNC(=O)COCCOCCNC(=O)COCCOCCNC(=O)CC[C@H](NC(=O)CCCCCCCCCCCCCCCCCCC(=O)O)C(=O)O)NC(=O)[C@H](CCC(N)=O)NC(=O)[C@H](C)NC(=O)[C@@H](NC(=O)[C@H](CCCCN)NC(=O)[C@H](CC(=O)O)NC(=O)[C@H](CC(C)C)NC(=O)C(C)(C)NC(=O)[C@@H](NC(=O)[C@H](CO)NC(=O)[C@H](Cc1ccc(O)cc1)NC(=O)[C@H](CC(=O)O)NC(=O)[C@H](CO)NC(=O)[C@@H](NC(=O)[C@H](Cc1ccccc1)NC(=O)[C@@H](NC(=O)CNC(=O)[C@H](CCC(=O)O)NC(=O)C(C)(C)NC(=O)[C@@H](N)Cc1ccc(O)cc1)[C@@H](C)O)[C@@H](C)O)[C@@H](C)CC)[C@@H](C)CC)C(C)C)C(=O)N[C@@H](C)C(=O)NCC(=O)NCC(=O)N1CCC[C@H]1C(=O)N[C@@H](CO)C(=O)N[C@@H](CO)C(=O)NCC(=O)N[C@@H](C)C(=O)N1CCC[C@H]1C(=O)N1CCC[C@H]1C(=O)N1CCC[C@H]1C(=O)N[C@@H](CO)C(N)=O", "test system": "patients with type 2 diabetes, serum", "conditions": "0.5 mg, day 29, proof of concept study", "endpoint": "AST", "value": "20.6 ± 8.1 U/L"}
